Results of several laboratories.
Parts stem from different laboratories: compare values within a part only. Several values in a cell are separate wells, animals, samples, runs or records. Positions count from the first letter of the parent shown.
Sequence of UniProt Q9C8N7 (whole entry, looked up): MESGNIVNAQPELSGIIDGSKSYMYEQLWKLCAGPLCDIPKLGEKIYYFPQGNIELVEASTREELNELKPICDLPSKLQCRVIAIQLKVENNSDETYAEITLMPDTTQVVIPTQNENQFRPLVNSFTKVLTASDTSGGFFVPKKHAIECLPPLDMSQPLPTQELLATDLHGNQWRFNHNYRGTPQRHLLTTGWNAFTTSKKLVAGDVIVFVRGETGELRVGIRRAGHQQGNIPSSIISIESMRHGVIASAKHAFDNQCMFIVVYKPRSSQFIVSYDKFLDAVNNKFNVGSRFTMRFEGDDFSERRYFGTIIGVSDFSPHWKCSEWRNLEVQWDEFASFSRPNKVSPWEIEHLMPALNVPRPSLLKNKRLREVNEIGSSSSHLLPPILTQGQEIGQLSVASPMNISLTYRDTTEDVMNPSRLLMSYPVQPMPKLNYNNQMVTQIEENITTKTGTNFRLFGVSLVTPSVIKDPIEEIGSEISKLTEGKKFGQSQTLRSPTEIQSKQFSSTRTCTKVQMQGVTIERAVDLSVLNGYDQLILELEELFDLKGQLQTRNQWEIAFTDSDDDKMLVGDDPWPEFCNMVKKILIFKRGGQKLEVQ
Sequence of UniProt Q84WU6 (whole entry, looked up): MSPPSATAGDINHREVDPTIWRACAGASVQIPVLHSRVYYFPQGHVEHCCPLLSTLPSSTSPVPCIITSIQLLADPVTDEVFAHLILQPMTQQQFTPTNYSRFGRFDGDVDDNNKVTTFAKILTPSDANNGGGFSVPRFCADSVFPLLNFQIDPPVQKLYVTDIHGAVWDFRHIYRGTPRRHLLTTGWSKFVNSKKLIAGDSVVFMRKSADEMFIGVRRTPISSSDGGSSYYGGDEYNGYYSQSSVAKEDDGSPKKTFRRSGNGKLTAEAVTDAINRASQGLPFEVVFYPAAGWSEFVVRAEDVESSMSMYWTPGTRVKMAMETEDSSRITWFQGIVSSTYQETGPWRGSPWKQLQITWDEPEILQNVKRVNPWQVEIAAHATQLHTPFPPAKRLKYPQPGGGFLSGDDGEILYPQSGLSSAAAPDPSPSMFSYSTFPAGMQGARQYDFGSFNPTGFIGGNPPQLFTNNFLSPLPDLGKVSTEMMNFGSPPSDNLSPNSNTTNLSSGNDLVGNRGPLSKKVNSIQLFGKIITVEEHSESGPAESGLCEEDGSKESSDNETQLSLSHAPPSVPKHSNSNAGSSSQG

Study 1
Target: RNA binding protein fox-1 homolog 2, RRM domain, GST-SBP tag (RBFOX2, Homo sapiens, UniProt O43251-10, residues 100-194)
Method: RNA Bind-n-Seq
Form: RNA
Sample: in vitro
Concentration: 365 nM
Notes: natural RNA segment, single round, ends assumed
Reference: no-protein control
Direction: higher = stronger binding
All sequences stand within: GGGAGUUCUACAGUCCGACGAUC … UGGAAUUCUCGGGUGCCAA
Construct (chain): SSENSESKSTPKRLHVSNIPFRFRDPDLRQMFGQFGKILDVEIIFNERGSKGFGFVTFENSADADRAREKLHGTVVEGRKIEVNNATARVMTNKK
Strand | RBNS enrichment (R)
UUUACCAACCCAAAUAUAUCAAAACGUUUUAUGUGAAUGUGGCAAUAAAGGAGAAGAGAUCAUUUUUAAAAACCGUGUUGCUCAGACAUUGCUCUCACGUGGCUCAGGCU | 0.445
UGUAAAAUAUGAACAAGGAUUCAUGAUUUGUAAAUGCUGUUUAUUUAUUGAUUGCUUCUUUCCAAAAUCGAAAAGAAAGAAAAAAGAACGUGACAGGAGAAGGGAAGCUG | 0.699
UUUUAAAAGAAAAAACUAUUCAUACCUGGCUUCCAGGUAAUUGACUUUGAAUUCUUACAAGCAAAGGUCAUUGUGUUUUUCUUGAAUAGACAUCUAAUAAAUUUUGCUUG | 0.584
AGUCUGUAAGGCCCAAAGUGGGUACAGACAGCCUGGGCUGGUAAAAGUAGGUCCUUAUUUACAAGGCUGCGUUAAAGUUGUACUAGGCAAACACACUGAUGUAGGAAGCA | 1.96
CAGCCACAGCAGCCUCUCCUUGCCACUUGCAAGACCCUAGGAGUUGCAGACUUGAAAAAGCUCUGUCUCCAACAGGGCCUCCUCUGAUCUCAGGAGCCUCAACUGUUUAU | 0.282
GAGGGAGAAUGAAUUGUCAUGAAAAAUUGGGGUUGAUUUUAUGUAUCUCUUGGGACAACUUUUAAAAGCUAUUUUUACCAAGUAUUUUGUAAAUGCUAAUUUUUUAGGAC | 0.969
CUGCCCUGUGAGGUGUGGGAGCCCUGAUGCUGCCGUGUGAUGUUUCAAUAAAGGUGGAUCUCACUGUGGACGUGUCUCCCGGGCCGAGGUCCCUGUGGCAAAGAAACACU | 0.306
GACUAAGGGUAGAGACUAAGGGGAGACUUGUUUUUCUGAAGUAGACUGCUUUCACUCGGCCUGAUGGACAAGCCCGCGUGUGUUCACGUCUGUGUGUAACUCACCCAGAG | 0.196

Study 2
Target: CCND1, cyclin fold, Cln2 fusion (human)
Method: yeast growth competition, sequencing
Sample: yeast
Notes: strong parent motif
Reference: not given
Direction: higher = stronger binding
Parent: viral docking peptide; KGVKRKLFAEDSS; partner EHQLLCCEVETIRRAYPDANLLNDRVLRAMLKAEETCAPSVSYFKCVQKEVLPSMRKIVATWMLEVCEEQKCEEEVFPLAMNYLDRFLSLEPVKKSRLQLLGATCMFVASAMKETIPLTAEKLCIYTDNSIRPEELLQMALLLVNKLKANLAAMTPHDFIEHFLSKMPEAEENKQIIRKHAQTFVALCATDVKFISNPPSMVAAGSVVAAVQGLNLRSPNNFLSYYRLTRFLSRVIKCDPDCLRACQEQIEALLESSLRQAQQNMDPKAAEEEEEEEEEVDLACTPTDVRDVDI
Variant | normalised enrichment score
KQVKRKLFAEDSS [G2Q] | 2.17
KGVKRTLFAEDSS [K6T] | 0.355
KGVKRKLFAEYSS [D11Y] | 0.598
KGVKRPLFAEDSS [K6P] | 0.106
KGVKRELFAEDSS [K6E] | 1.41
KGVKKKLLAEDSS [R5K F8L] | 0.186
KGVERKLFAEDSS [K4E] | 0.714
KGVKSKLFAEDSS [R5S] | -0.314
KGVKIKLFAEDSS [R5I] | 0.614
KGVKRKLMAEDSS [F8M] | -0.0822
KGVLRKLFAEDSS [K4L] | 0.271
KGNKRKLFAEDSS [V3N] | 0.244
KGVKRKVFAEDSS [L7V] | 0.0575
KDVKRKLFAEDSS [G2D] | 1.62
KGVKRKLFAEDPS [S12P] | 1.78
KGVKRKLFASDSS [E10S] | 0.304
KGVKRKLSAEDSS [F8S] | -0.439
KMVKRKLFAEDSS [G2M] | 1.31
KGVKRKQFAEDSS [L7Q] | 0.118
KGVKRKFFAEDSS [L7F] | 0.328
KGAKRKLFAEDSS [V3A] | 4.32
KGVKRKLFAEDAS [S12A] | 1.4
KGVKRKLFAEPSS [D11P] | 0.649
KGVKRKLFAEDRS [S12R] | 0.867
KGVKQKLFAEDSS [R5Q] | 0.407

Study 3
Variant: L164E
Target: ABI1, truncated, D143A, DHFR fusion (Arabidopsis thaliana)
Method: DHFR PCA, deep sequencing
Sample: yeast
Notes: methotrexate growth selection, single substitutions
Reference: wild-type fitted maximum
Direction: higher = stronger binding
Parent: PYL1, truncated, DHFR fusion (Arabidopsis thaliana); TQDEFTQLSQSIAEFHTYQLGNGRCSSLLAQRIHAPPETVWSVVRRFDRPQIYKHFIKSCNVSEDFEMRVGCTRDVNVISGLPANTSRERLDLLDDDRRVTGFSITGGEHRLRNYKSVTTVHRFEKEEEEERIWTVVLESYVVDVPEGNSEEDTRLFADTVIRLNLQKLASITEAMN; partner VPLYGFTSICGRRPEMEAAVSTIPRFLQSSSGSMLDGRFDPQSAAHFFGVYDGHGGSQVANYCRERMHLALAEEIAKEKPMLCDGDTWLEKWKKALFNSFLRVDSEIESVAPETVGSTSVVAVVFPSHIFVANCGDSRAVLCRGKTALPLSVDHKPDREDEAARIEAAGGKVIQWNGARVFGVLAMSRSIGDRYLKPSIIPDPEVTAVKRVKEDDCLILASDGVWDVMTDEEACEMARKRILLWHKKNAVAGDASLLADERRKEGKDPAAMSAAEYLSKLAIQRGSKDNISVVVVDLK
setting | relative binding score [%]
together with: (+)-ABA 2500 µM | 90.8
together with: (+)-ABA 0.11 µM | 4.31
together with: (+)-ABA 710 µM | 88.1
together with: (+)-ABA 58 µM | 56.1
together with: (+)-ABA 0 µM | 5.2
together with: (+)-ABA 0.0091 µM | -3.89

Study 4
Target: HLA class I histocompatibility antigen, A alpha chain, allele A*80:01 (Homo sapiens, UniProt P04439)
Effect on: peptide-MHC binding
Form: peptide
Concentration: concentration not given
Sequence | binding
KSFSAGMFH | inactive
NLFDWMHFL | inactive
ETLDVFGPI | inactive

Study 5
Target: Histone acetyltransferase KAT6A, both winged helices, GST fusion (KAT6A, Homo sapiens, UniProt Q92794, residues 1-181)
Method: protein binding microarray
Form: double-stranded DNA, one strand shown
Sample: in vitro
Concentration: not given
Notes: 8-mer, flanks averaged, mean of 2 arrays, mostly near background
Reference: not given
Direction: higher = stronger binding
Residues (chain): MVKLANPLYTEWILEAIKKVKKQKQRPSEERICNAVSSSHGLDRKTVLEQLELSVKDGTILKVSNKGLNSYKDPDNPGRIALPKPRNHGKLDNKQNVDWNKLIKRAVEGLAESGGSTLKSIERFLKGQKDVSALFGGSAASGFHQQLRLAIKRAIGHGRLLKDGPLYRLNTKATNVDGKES
Strand | E-score
CCAATTGA | -0.188
GTGGAAGA | -0.00431
ATAGCCAG | -0.179
AAGTTTCG | -0.00752
GCAGGTCA | -0.116
ACTGAGCG | 0.133
TCAGGGCA | -0.185
AAGGTATG | -0.0522

Other studies, line by line
Molecule | tested on | test | system | setting | how to read | endpoint | value
CNC(=O)c1ccc(-c2cnn3ccc(C(=O)N(C)c4ccc(Cl)c(C(=O)OC)c4)cc23)cc1 | Cryptosporidium parvum | qPCR | neonatal calves | dose not given, day 11 post-treatment | – | fecal oocyst count | 231 oocysts/g feces and 0 oocysts/g feces
ARF17 (Arabidopsis thaliana, UniProt Q84WU6) | ARF22 498-598 (Arabidopsis thaliana, UniProt Q9C8N7) | two-hybrid | – | weak activation fusion | reference: out of 4 tests, higher = firmer interaction | positive tests | 1
